Measured values of several laboratories.
Each line is one published result; not all experiments were run side by side.
MYO3B: Myosin-IIIb (MYO3B, Homo sapiens, UniProt Q8WXR4)
UniProt Q8WXR4, sequence (whole entry, looked up): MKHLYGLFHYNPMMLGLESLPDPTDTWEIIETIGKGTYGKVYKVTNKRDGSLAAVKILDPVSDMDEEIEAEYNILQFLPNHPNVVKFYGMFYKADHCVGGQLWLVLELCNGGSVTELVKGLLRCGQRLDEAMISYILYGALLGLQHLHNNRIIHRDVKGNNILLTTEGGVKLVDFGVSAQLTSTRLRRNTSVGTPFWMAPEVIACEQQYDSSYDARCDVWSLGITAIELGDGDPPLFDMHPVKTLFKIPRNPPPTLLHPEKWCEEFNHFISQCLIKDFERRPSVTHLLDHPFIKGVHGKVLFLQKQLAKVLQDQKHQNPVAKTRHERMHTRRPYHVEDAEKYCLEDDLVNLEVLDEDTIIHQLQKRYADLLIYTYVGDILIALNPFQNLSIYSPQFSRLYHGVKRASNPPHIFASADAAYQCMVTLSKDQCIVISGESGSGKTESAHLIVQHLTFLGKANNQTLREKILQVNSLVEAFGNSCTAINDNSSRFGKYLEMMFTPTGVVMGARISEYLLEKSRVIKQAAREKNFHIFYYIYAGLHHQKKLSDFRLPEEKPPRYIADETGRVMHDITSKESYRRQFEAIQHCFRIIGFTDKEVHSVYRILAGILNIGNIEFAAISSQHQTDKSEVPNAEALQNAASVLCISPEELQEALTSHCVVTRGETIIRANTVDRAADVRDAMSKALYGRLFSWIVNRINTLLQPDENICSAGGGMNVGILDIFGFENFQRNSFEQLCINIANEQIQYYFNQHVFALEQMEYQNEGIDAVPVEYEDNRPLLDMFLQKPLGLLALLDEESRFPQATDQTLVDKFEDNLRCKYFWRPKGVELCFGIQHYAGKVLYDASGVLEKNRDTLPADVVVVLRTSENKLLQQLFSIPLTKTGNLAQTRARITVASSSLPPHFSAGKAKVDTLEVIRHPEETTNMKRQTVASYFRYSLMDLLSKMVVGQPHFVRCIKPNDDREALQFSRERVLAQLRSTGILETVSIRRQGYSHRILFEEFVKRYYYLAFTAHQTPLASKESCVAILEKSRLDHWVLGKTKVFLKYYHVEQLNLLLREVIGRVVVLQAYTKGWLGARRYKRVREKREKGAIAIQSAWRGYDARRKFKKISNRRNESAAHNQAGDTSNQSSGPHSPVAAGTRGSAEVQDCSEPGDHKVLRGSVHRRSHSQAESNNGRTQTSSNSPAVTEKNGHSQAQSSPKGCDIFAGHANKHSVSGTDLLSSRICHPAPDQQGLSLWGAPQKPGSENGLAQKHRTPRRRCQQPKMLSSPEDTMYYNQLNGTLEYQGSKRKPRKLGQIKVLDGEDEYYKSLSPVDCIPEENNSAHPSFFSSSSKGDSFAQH
UniProt Q9H792, sequence (whole entry, looked up): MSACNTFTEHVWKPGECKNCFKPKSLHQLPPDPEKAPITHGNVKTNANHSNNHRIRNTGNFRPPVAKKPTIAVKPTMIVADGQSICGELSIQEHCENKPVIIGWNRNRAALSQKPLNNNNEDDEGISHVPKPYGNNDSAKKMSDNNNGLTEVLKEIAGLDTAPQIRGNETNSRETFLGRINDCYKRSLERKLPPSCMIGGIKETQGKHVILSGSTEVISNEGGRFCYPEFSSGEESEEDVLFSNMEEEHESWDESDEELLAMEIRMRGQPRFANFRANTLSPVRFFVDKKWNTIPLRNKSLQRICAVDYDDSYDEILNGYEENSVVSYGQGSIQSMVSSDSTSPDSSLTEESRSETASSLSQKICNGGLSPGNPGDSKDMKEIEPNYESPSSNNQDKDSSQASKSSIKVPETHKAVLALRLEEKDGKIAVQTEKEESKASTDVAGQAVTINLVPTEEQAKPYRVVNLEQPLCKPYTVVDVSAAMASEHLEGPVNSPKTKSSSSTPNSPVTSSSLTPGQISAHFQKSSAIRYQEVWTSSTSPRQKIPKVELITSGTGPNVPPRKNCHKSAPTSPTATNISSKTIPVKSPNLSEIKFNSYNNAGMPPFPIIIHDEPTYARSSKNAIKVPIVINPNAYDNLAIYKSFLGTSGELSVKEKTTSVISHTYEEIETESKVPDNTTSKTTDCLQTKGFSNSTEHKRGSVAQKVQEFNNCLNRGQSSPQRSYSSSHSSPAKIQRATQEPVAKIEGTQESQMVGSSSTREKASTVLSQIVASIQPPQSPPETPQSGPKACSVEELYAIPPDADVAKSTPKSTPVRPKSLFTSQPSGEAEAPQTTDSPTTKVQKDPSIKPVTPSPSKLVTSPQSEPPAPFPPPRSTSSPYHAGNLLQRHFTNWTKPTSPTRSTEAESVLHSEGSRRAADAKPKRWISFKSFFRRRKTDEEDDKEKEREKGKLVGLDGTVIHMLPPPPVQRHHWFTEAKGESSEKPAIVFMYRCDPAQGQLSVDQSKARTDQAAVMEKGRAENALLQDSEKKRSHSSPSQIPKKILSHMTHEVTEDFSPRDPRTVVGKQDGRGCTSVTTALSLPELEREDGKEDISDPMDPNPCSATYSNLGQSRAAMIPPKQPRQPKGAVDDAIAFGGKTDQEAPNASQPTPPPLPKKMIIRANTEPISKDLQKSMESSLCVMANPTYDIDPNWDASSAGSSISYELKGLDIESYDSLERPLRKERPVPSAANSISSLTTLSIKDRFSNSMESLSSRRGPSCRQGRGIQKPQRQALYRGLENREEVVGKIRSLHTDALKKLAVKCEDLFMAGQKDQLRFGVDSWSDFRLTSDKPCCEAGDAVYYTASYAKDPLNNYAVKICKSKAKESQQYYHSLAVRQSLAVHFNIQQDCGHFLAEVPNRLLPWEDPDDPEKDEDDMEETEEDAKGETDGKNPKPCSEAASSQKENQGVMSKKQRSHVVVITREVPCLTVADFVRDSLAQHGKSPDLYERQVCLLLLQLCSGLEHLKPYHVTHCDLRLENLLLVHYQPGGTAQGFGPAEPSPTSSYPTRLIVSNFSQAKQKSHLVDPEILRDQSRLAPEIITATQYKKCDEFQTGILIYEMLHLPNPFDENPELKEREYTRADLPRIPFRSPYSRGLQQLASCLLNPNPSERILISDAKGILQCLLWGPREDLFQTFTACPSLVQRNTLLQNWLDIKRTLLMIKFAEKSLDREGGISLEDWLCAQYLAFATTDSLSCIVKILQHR
UniProt Q9UL54, sequence (whole entry, looked up): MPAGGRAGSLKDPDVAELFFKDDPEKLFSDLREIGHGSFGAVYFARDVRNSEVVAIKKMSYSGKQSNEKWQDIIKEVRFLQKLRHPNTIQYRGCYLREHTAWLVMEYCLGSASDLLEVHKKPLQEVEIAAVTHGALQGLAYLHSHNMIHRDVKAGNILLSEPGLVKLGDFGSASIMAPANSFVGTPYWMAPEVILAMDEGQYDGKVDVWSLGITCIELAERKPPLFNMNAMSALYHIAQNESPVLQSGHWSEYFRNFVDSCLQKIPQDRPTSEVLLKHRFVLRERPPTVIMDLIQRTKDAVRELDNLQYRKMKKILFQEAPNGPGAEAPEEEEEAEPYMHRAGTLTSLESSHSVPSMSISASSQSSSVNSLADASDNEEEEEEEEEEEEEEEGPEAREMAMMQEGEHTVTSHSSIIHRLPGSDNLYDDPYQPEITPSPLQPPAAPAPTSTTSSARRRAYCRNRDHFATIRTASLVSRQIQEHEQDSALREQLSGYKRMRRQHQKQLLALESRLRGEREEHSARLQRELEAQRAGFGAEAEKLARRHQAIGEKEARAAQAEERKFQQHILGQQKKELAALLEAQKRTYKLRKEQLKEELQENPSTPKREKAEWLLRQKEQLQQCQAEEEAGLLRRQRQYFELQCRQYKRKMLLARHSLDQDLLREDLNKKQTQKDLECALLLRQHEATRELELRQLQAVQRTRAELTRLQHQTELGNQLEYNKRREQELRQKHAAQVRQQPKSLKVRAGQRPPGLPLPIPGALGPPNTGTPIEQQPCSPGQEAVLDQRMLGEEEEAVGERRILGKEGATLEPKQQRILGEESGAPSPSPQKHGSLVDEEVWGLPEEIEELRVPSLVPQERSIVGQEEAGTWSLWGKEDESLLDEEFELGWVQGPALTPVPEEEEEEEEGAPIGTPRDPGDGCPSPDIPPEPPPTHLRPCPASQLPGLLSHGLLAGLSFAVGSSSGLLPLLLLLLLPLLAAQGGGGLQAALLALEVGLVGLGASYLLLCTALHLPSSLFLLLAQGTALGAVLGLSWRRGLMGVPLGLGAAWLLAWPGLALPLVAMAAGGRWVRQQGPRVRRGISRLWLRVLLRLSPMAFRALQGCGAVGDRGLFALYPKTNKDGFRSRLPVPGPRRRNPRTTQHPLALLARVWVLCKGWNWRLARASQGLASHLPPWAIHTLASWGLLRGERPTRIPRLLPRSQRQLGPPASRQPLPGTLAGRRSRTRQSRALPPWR
UniProt P34968, sequence (whole entry, looked up): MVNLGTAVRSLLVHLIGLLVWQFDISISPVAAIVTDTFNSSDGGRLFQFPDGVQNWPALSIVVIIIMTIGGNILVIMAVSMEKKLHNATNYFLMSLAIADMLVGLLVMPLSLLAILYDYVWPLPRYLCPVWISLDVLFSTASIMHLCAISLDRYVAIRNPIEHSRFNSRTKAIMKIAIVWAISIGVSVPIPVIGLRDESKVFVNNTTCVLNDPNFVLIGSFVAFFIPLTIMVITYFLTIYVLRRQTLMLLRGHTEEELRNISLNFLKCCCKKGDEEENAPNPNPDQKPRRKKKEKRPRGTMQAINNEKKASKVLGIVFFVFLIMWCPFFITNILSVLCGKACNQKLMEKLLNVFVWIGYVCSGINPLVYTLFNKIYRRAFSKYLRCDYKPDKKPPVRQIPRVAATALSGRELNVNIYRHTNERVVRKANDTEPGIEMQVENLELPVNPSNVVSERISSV

N=C(N)NCCC[C@H](NC(=O)[C@H](Cc1ccccc1)NC(=O)[C@H](CCC(N)=O)NC(=O)OCc1ccccc1)C(=O)c1nccs1  AUC(0-inf) (female C57BL/6 mouse, plasma; intravenous, 5 mg/kg): 1190 ng·h/mL
C/C=C1/CN2[C@@H]3C[C@@]45c6ccccc6N[C@]4(O3)[C@@H]2C[C@@H]1[C@@]5(COC(C)=O)C(=O)OC  Papp A→B (Caco-2; pH 7.4): 28 ×10⁻⁶ cm/s
CC(C)C[C@H](NC(=O)[C@H](Cc1ccccc1)NC(=O)[C@H](Cc1ccccc1)NC(=O)Cc1ccc(-c2ccccc2)cc1)C(=O)N[C@@H](CCCCN)C(=O)N[C@@H](CCCNC(=N)N)C(=O)N[C@H](C(=O)N[C@@H](Cc1c[nH]c2ccccc12)C(=O)N[C@@H](CCCCN)C(=O)N[C@@H](CCCNC(=N)N)C(=O)O)C(C)C  compound remaining (metabolic stability, mass spectrometry; mouse, liver microsomes; 45 min): 14.2%
O=C(Nc1cccnn1)N1CCN([C@@H]2CCOc3cc(C(F)(F)F)ccc32)CC1  bioavailability (male Sprague-Dawley rat, plasma; oral, 1 mg/kg): 69%
CN(C)C1(CNC(=O)c2ccc3c(c2)CCN3C(=O)c2ccccc2)CCOCC1  concentration (male C57BL/6 mouse, brain; intraperitoneal, 50 mg/kg, 30 min): 550 ng/g
CC(C)(N)CNC(=O)O[C@H]1CCC[C@@]2(C1)OOC1(O2)C2CC3CC(C2)CC1C3 (stereo partly drawn)  AUC(0-t) (male CD-1 mouse, plasma; intravenous, 3 mg/kg): 648 ng·h/mL
CN1C(=O)Cc2ccc(F)c(CCNC[C@H]3CN(c4ccc5c(n4)NC(=O)CO5)C(=O)O3)c21  hepatocyte CLint (metabolic stability; human, hepatocytes; 0.5 µM): 9 µL/min/10⁶ cells
Nc1ncc(-c2nc(N3CCOCC3)nc(N3CCOCC3)n2)c(C(F)F)n1  remaining binding (MYO3B; binding, competition with immobilised ligand; 10 µM): 99%
CC(=O)c1c([O-])cc(C)oc1=O.[Na+]  half-life (rat, serum; oral, 200 mg/kg): 640 min
OC[C@@H](O)[C@@H](O)[C@H](O)[C@H](O)CO  Papp B→A (Caco-2): 0.203 ×10⁻⁶ cm/s
[2H]c1c([2H])c([C@]2([2H])CCCN2C(=O)C(C)(C)Oc2ccc3cn[nH]c3c2)c([2H])c([2H])c1C([2H])([2H])[2H]  remaining binding (TAOK2 (Homo sapiens, UniProt Q9UL54); binding, competition with immobilised ligand; 1 µM): 94%
CC1(C)NC(=O)N(c2cc(Cl)c(F)c(C(F)(F)F)c2)C1=O  microsomal CLint (metabolic stability; mouse, liver microsomes): < 7 µL/min/mg
CC(=O)c1c(C)c2cnc(Nc3ccc(C4CCN(CCS(C)(=O)=O)CC4)cn3)nc2n(C2CCCC2)c1=O  MTD (general toxicity; beagle dog; oral, multiple doses): 6 mg/kg/day
C=C(C)[C@@H]1CC[C@]2(NCCN3CCS(=O)(=O)CC3)CC[C@]3(C)[C@H](CC[C@@H]4[C@@]5(C)CC=C(C6=CC[C@@](COc7ncccc7C#N)(C(=O)O)CC6)C(C)(C)[C@@H]5CC[C@]43C)[C@@H]12  AUC(0-t) (human, plasma; oral, 100 mg, fed, tablet): 8650 ng·h/mL
C#Cc1n[nH]c2c(-c3cn(C(C)c4ccccn4)c(=O)[nH]c3=O)cc(F)cc12 (stereo not drawn)  inhibition (PEAK1 (Homo sapiens, UniProt Q9H792); enzyme activity, inhibitor; 1 µM): -16.4%
Cc1[nH]c(C)c(S(=O)(=O)Nc2ccc(S(F)(F)(F)(F)F)cc2)c1C(=O)N1CCC(F)(F)C1  Cmax (mouse, brain; intraperitoneal, 40 mg/kg): 3.5 µM
CN1CCN(S(=O)(=O)c2cc([N+](=O)[O-])ccc2N(CCOS(C)(=O)=O)CCOS(C)(=O)=O)CC1  MRT(0-inf) (female SCID mouse, plasma; intraperitoneal, 5 mg/kg): 19.2 min
CC[C@H](C)CCCCC(=O)N[C@@H](CCN)C(=O)N[C@H](C(=O)N[C@@H](CCN)C(=O)N[C@H]1CCNC(=O)[C@H]([C@@H](C)O)NC(=O)[C@H](CCN)NC(=O)[C@H](CCN)NC(=O)[C@H](CC(C)C)NC(=O)[C@@H](CC(C)C)NC(=O)[C@H](CCN)NC1=O)[C@@H](C)O  AUC(0-t) (male Sprague-Dawley rat, plasma; intravenous, 5 mg/kg): 12500 ng·h/mL
N=C(N)NCCC[C@@H](NC(=O)[C@@H](N)Cc1ccccc1)C(=O)N[C@@H](Cc1ccccc1)C(=O)N[C@@H](CCCCN)C(N)=O  AUC(0-t) (human, plasma; subcutaneous, 5 mg, multiple doses, once daily, patients): 817 ng·h/mL
C[C@]12CC[C@H]3[C@@H](CC=C4CC(O)CC[C@@]43CO)[C@@H]1CCC2O (stereo partly drawn)  half-life (rat, plasma; intraperitoneal, 10 mg/kg): 18 min
Cl.Cn1c(=O)n(CCCCN2CCC3(CC2)OCc2ccccc23)c2ccccc21  AUC(0-t) (male Sprague-Dawley rat, plasma; intravenous, 10 mg/kg): 6400 ng·h/mL
CCC[C@@](N)(CO)CCc1ccc(OCCCCCC(C)C)cc1  bioavailability (rat, plasma; oral, 10 mg/kg): 24%
[18FH]  tracer uptake (mouse, spleen; intravenous, 1 h): 0.16 %ID/g
CCN(CC)CCCC[C@H](NC(=O)[C@H](CC(C)C)NC(=O)[C@H](C)NC(=O)[C@H](Cc1ccccc1)NC(=O)c1ccc(C(C)(C)C)cc1)C(=O)N[C@@H](CO)C(=O)OC  AUC(0-t) (male Swiss mouse, blood; intraperitoneal, 10 mg/kg): 1550 ng·h/mL
Cc1nn(C)cc1-c1nc2c(N3CCN(Cc4ccc(Cl)cc4)CC3)c(Cl)cnc2[nH]1  remaining binding (MYO3B; binding, competition with immobilised ligand; 1 µM): 100%
N.N.[Cl][Pt][Cl]  inhibition (P3HR-1; cell growth or viability, ATP luminescence; 10 µM, 72 h): 89%
Nc1c2c(nc3c1C(c1cccc([N+](=O)[O-])c1)c1ccc(OS(=O)(=O)c4ccc(F)cc4)cc1O3)CCCC2 (stereo not drawn)  viability (SH-SY5Y; cell growth or viability, MTT; 1.6 µM): 79%
C/C=C1/CN2CC[C@]34C(=C(C(=O)OC)[C@H]1C[C@H]23)Nc1ccccc14  Papp B→A (Caco-2; 10 µM, 2 h, pH 7.4): 39.1 ×10⁻⁶ cm/s
N=c1c2c(-c3ccccc3)c(-c3ccccc3)n(Cc3ccccc3)c2ncn1[C@H]1CC[C@H](O)CC1  AUC(0-t) (male beagle dog, plasma; oral, 1 mg/kg, single dose): 10100 ng·h/mL
CC[C@H](C)[C@@H]1NC(=O)[C@H](CCCNC(=N)N)NC(=O)C[C@@H](c2cccc3ccccc23)NC(=O)[C@@H]2CSSC[C@H](NC(=O)C[C@@H](c3cccc4ccccc34)NC(=O)[C@H](CCCNC(=N)N)NC(=O)[C@@H]3CCCN3C(=O)[C@@H]3CCCN3C1=O)C(=O)N[C@@H](Cc1ccccc1)C(=O)N1CCC[C@H]1C(=O)N[C@@H](CC(=O)O)C(=O)N[C@@H](CC(=O)O)C(=O)N[C@@H](Cc1ccccc1)C(=O)N2  compound remaining (chemical stability, HPLC; human, serum; 0.6 mg/mL, 12 h): 75%
Cc1cc(C)nc(Nc2ncc(C(=O)NCCc3c(C)[nH]c4ccccc34)cn2)c1  AUC(0-inf) (C57BL/6 mouse, plasma; intraperitoneal, 22 mg/kg): 1640 ng·h/mL
C[C@H]1O[C@@H](O[C@H]2[C@@H](O)C[C@H](O[C@H]3[C@@H](O)C[C@H](O[C@H]4CC[C@@]5(C)[C@H](CC[C@@H]6[C@@H]5C[C@@H](O)[C@]5(C)[C@@H](C7=CC(=O)OC7)CC[C@]65O)C4)O[C@@H]3C)O[C@@H]2C)C[C@H](O)[C@@H]1O  Papp A→B (Caco-2; 10 µM, 2 h, pH 7.4): 3 ×10⁻⁶ cm/s
CC[C@H](C)[C@H](N)C(=O)N[C@@H](CC(C)C)C(=O)NCC(=O)N[C@@H](CCCNC(=N)N)C(=O)N[C@H](C(=O)N[C@@H](Cc1c[nH]c2ccccc12)C(=O)N[C@@H](CCCCN)C(=O)NCC(=O)N[C@H](C(=O)N[C@@H](CCCCN)C(=O)N[C@@H](CC(=O)O)C(=O)N[C@H](C(=O)N[C@@H](CC(C)C)C(N)=O)[C@@H](C)CC)[C@@H](C)CC)[C@@H](C)CC  compound remaining (chemical stability, HPLC; human, serum; 1 mg/mL, 2 h): ~35%
Nc1nc(-c2ccccc2)nc2[nH]nc(Nc3ccc(C(F)(F)F)cc3)c12  concentration (mouse, plasma; oral, 100 mg/kg, 2 h): 1100 ng/mL
COc1ccc(C[C@@H](C)[C@@H](C)Cc2ccc(OC)c(OC)c2)cc1OC  NOAEL (general toxicity; female beagle dog; oral, multiple doses): 1000 mg/kg/day
[2H]C([2H])([2H])n1cc2cc(Nc3nc(=O)n(Cc4ncn(C)n4)c(=O)n3Cc3cc(F)c(F)cc3F)c(Cl)cc2n1  bioavailability (male Sprague-Dawley rat, plasma; oral, 25 mg/kg): 73.6%
COc1ncccc1-c1cnn2ccc(N3CCN(C(=O)OC(C)C)CC3)nc12  remaining binding (WNK3 (Homo sapiens, UniProt Q9BYP7); binding, competition with immobilised ligand; 1 µM): 53%
COc1cc(CCNC(C)c2ccccc2O)c(OC)cc1C#N (stereo not drawn)  EC50 (Htr2c (Mus musculus, UniProt P34968); G protein activation, agonist, BRET): 210 nM
CC(C)CC(=O)OC[C@H]1O[C@@](C#N)(c2ccc3c(N)ncnn23)[C@H](O)[C@@H]1O  fraction unbound (monkey, plasma): 0.289
